# Experimental data collected from several papers.
# A part holds a random share of what one study measured. Several values in a cell are separate wells, animals, samples, runs or records.
# Chain of UniProt P27361 (whole entry, looked up): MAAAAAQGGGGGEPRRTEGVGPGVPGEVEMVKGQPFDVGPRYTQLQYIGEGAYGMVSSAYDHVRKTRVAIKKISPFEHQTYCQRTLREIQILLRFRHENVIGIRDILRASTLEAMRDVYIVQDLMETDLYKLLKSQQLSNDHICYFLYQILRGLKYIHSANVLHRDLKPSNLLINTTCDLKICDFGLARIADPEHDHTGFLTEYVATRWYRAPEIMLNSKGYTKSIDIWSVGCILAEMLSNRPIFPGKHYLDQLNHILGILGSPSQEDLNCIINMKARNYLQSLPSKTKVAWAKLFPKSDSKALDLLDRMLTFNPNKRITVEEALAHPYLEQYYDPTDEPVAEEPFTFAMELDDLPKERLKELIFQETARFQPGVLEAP
# Chain of UniProt P25098 (whole entry, looked up): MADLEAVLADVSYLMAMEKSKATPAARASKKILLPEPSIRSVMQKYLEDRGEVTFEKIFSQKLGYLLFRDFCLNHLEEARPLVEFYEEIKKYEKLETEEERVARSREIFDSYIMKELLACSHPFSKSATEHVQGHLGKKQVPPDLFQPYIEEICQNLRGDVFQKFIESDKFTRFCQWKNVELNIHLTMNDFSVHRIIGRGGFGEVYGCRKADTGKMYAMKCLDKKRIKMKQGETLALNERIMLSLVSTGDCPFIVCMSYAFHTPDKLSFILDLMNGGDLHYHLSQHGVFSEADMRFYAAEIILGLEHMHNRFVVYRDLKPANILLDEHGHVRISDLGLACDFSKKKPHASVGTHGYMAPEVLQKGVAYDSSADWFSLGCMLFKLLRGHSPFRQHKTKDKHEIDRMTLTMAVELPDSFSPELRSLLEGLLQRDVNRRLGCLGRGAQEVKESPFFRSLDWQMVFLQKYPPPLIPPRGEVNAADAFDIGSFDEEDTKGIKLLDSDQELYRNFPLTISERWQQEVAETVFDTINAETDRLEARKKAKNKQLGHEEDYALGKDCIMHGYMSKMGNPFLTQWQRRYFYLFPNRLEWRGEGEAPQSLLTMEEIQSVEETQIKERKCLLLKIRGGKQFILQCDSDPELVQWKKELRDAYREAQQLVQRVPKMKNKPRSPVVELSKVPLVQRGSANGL
# Chain of UniProt Q8IVH8 (whole entry, looked up): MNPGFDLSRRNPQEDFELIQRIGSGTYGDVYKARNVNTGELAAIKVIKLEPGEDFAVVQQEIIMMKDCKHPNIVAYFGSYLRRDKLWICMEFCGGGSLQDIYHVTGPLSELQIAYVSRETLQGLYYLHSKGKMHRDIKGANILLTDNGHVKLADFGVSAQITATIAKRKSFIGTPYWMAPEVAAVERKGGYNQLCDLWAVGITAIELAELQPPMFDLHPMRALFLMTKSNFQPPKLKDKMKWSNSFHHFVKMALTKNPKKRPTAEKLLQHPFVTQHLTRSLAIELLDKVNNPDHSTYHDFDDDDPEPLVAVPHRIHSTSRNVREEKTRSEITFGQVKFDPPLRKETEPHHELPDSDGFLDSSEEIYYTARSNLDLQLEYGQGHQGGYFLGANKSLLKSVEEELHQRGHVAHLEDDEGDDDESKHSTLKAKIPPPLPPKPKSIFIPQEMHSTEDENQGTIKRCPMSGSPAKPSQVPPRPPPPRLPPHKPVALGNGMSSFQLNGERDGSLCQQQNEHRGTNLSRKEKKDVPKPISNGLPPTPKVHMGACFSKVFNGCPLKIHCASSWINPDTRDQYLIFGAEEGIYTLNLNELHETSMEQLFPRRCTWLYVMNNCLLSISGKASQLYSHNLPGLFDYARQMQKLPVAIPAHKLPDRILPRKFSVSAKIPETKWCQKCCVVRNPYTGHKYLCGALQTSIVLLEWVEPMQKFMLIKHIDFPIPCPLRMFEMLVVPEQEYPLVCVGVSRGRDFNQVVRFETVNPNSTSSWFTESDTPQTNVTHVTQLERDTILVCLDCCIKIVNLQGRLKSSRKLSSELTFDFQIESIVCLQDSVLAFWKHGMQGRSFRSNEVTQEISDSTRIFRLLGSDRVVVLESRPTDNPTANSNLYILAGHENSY

# Set 1
# Target: RAC-gamma serine/threonine-protein kinase (AKT3, Homo sapiens, UniProt Q9Y243)
# Chain of UniProt Q9Y243 (whole entry, looked up): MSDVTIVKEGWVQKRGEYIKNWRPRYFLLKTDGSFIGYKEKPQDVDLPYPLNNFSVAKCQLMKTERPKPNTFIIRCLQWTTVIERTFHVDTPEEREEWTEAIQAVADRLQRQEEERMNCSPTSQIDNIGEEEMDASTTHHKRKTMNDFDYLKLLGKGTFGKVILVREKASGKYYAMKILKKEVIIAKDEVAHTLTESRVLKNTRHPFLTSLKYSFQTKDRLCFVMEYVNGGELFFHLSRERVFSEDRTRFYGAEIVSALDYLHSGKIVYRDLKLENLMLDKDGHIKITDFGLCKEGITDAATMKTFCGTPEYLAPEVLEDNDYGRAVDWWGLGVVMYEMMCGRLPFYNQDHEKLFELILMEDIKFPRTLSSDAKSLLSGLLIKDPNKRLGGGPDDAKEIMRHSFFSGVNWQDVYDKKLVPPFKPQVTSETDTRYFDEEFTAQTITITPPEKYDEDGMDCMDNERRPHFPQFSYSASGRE
# Read-out: enzyme activity
# Mode: inhibitor
# Tested at: 0.5 µM
# Relative to: control
Compound,remaining activity
Nc1ncnc2n[nH]c(Nc3ccc(F)cc3)c12,104%
COc1ccc(CNC(=O)Nc2ncc([N+](=O)[O-])s2)cc1,95.9%
Nc1[nH]nc2nc3ccccc3nc12,95.3%
CN(C)c1ccc(C=C2C(=O)Nc3ccccc32)cc1,103%
CNC(=O)c1cc(Oc2ccc(NC(=O)Nc3ccc(Cl)c(C(F)(F)F)c3)cc2)ccn1,94.2%
O=C(O)c1ccc2c3c1cccc3c(=O)n1c3ccccc3nc21,104%
N#CC(C#N)=C(N)/C(C#N)=C/c1ccc(O)cc1,95.8%
O=S(=O)(c1cccc2cnccc12)N1CCCNCC1,94.1%
O=c1c2ccccc2[nH]c(=S)n1CCN1CCC(=C(c2ccc(F)cc2)c2ccc(F)cc2)CC1,99.4%
O=C(CCCc1ccc(-c2ccccc2F)cc1)Nc1ccc(O)cc1,111%
O=C1NC(=O)C(c2cn(CCCO)c3ncccc23)=C1c1cnccn1,101%
COc1cc2ncnc(Nc3ccc(Oc4ccccc4)cc3)c2cc1OC,105%
O=C1NC(=O)C(c2cn(CCCn3ccnc3)c3ccccc23)=C1Nc1ccccc1,71%
Cn1c2ccccc2c2c3c(c4c5ccccc5n(CCC#N)c4c21)CNC3=O,85.3%
CCOC(=O)c1c(C)[nH]c(/C=C2\C(=O)Nc3ccccc32)c1C,103%
COc1cc2nccc(Oc3ccc(NC(=S)NC(=O)c4ccccc4C)cc3)c2cc1OC,95.9%
OCC(O)CCON=C1C(c2c(O)[nH]c3ccccc23)=Nc2ccccc21 (stereo not shown),92.9%
NCCNc1ncc(C(N)=O)c(Nc2cccc(C(F)(F)F)c2)n1,88.9%
COc1ccc(OC)c2c(=S)c3ccccc3[nH]c12,92%
O=C(Nc1cccc(Nc2cc(Nc3cccc(C(F)(F)F)c3)ncn2)c1)C1CC1,99.4%
COc1ccc(C(=O)Nc2sc3c(c2C(N)=O)CCCC3)cc1OC,102%
Oc1ccc(-c2nc(-c3ccncc3)c(-c3ccc(F)cc3)[nH]2)cc1,98.4%
Cn1sc(=O)n(Cc2ccccc2)c1=O,96.6%
COc1cc2ncnc(Nc3ccc(F)c(Cl)c3)c2cc1OCCCN1CCOCC1,84.6%
Nc1ccc2ncnc(NCCc3ccc(Oc4ccccc4)cc3)c2c1,104%

# Set 2
# SMILES: CC(=O)N[C@@H](Cc1c[nH]c2ccccc12)C(=O)N[C@@H](CCC(=O)C=[N+]=[N-])C(=O)OC(C)C
system,conditions,tumour volume
"mouse, EL4 tumour","subcutaneous, 1 mg/kg, day 8",355 mm3 and 272 mm3 and 279 mm3 and 392 mm3 and 176 mm3 and 131 mm3
"mice, MC-38 tumour rechallenge","1 mg/kg, day 6 after injection",71.9 mm3 and 21.2 mm3 and 64.8 mm3
"mouse, EL4 tumour","subcutaneous, 0.3 mg/kg, day 17",0 mm3 and 288 mm3 and 88 mm3
"mouse, EL4 tumour","subcutaneous, 0.3 mg/kg, day 15",941 mm3 and 111 mm3 and 52.8 mm3 and 0 mm3 and 170 mm3 and 144 mm3
"mice, MC-38 tumour rechallenge","1 mg/kg, day 29 after injection",0 mm3
"mouse, EL4 tumour","subcutaneous, 0.3 mg/kg, day 16",945 mm3 and 0 mm3 and 97.2 mm3

# Set 3
# Target: DNA polymerase theta, helicase domain (POLQ, Homo sapiens, UniProt O75417)
# Chain of UniProt O75417 (whole entry, looked up): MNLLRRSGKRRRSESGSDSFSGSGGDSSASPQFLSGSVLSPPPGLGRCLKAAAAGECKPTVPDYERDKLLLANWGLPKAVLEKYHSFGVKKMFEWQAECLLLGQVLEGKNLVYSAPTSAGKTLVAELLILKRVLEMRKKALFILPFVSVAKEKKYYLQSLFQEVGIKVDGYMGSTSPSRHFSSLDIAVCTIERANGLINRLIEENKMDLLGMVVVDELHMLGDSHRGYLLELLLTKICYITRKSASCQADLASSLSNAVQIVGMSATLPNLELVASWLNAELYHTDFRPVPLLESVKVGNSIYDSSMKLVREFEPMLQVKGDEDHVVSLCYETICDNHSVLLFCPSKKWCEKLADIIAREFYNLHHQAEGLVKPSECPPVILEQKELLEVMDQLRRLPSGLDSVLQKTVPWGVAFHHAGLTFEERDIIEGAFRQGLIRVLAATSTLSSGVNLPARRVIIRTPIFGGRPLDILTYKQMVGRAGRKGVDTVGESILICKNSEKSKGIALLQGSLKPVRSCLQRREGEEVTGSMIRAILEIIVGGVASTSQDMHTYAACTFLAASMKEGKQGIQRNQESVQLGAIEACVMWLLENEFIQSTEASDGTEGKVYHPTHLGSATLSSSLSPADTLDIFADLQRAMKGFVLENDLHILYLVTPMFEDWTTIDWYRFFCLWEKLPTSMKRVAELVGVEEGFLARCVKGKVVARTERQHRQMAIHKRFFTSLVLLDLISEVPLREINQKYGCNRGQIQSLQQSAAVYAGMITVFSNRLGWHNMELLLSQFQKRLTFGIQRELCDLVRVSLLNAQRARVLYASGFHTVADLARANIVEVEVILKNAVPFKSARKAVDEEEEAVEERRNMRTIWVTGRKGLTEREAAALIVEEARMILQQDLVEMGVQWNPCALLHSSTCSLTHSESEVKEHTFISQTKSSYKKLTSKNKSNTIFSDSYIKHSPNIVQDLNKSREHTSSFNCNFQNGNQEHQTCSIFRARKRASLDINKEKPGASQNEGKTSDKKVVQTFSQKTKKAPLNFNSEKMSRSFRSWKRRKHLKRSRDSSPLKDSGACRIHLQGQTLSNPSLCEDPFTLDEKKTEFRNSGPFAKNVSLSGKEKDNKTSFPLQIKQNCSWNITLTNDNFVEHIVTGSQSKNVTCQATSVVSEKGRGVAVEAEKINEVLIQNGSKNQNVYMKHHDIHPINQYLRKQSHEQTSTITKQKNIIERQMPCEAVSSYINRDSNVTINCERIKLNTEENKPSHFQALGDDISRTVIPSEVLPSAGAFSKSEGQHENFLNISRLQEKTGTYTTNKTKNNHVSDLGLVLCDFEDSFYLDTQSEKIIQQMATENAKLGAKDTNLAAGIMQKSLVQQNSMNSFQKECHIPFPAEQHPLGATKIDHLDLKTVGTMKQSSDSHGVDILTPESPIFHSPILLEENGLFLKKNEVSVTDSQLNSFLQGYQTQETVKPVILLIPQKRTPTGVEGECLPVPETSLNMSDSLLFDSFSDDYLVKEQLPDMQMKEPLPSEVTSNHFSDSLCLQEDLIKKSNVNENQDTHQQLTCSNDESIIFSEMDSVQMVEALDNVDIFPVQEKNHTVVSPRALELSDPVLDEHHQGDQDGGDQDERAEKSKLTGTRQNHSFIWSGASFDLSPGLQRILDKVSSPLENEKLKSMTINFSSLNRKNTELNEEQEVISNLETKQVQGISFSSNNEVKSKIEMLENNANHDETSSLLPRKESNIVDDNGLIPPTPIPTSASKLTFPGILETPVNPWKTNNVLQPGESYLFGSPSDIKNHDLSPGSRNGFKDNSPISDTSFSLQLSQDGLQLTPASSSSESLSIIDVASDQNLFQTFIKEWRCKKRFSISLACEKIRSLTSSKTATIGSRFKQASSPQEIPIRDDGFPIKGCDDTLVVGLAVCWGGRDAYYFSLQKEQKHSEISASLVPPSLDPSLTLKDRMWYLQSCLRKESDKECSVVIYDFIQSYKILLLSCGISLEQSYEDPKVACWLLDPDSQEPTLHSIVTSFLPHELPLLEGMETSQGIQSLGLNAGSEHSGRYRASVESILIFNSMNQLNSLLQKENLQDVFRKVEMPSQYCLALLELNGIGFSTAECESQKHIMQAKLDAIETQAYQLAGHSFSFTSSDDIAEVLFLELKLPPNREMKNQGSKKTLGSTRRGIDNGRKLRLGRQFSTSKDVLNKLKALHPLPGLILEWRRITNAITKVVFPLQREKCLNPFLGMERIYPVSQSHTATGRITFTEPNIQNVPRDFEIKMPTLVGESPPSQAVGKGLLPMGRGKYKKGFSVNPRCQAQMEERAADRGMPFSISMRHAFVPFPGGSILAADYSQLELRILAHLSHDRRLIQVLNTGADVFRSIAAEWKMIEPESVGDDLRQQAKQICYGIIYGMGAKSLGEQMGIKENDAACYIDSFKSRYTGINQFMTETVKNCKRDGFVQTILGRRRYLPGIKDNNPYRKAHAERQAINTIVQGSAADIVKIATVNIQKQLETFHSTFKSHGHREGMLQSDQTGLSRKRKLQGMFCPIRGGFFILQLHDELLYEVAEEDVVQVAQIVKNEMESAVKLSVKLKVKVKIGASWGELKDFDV
# Mode: inhibitor
# Tested at: concentration not given
# Notes: average
# Together with: without ssDNA
SMILES,remaining activity [%]
COc1ccc2c(c1)c(CC(=O)O)c(C)n2Cc1ccc(Cl)cc1,66.6
CC(C)(C)c1ccc(S(=O)(=O)c2cnc(SCC(=O)Nc3ccc4c(c3)OCCO4)[nH]c2=O)cc1,70.6
N#Cc1c(O)c2c(-c3ccc(-c4ccccc4O)cc3)csc2[nH]c1=O,49.5
CC1=Nc2cc(C(=O)NCCc3ccc(Cl)cc3)ccc2Sc2ccc(C)cc21,63.7
CCCCCCCCCCCCc1ccc(S(=O)(=O)Nc2nncs2)cc1,97.6

# Set 4
# Compound: c1ccc(Oc2ccc(Nc3c4c(nc5ccccc35)CCC4)cc2)cc1
# Organism: Leishmania donovani
# Read-out: parasite killing
# Strain: DD8
system,conditions,inhibition
intracellular amastigotes,"40 µM, 72 h",100%
intracellular amastigotes,"80 µM, 24 h",100%
promastigotes,"6.66 µM, 48 h",99%
promastigotes,"16.66 µM, 72 h",100%
intracellular amastigotes,"4 µM, 72 h",97% and 98%
intracellular amastigotes,"80 µM, 48 h",100%

# Set 5
# Structure (SMILES): NS(=O)(=O)c1cc(NC(=O)C2(c3ccccc3Cl)CC2)ccc1Oc1cccc(Cl)c1
# Read-out: cell-free assay
# Method: competition with immobilised ligand
# Tested at: 1 µM
target,remaining binding [%]
"Mitogen-activated protein kinase kinase kinase kinase 3 (MAP4K3, Homo sapiens, UniProt Q8IVH8)",100
"Epidermal growth factor receptor (EGFR, Homo sapiens, UniProt P00533, G719C)",90
"Mitogen-activated protein kinase kinase kinase kinase 1 (MAP4K1, Homo sapiens, UniProt Q92918)",66
"Serine/threonine-protein kinase Sgk1 (SGK1, Homo sapiens, UniProt O00141)",100
"Mitogen-activated protein kinase 3 (MAPK3, Homo sapiens, UniProt P27361)",76
"Receptor-type tyrosine-protein kinase FLT3 (FLT3, Homo sapiens, UniProt P36888, N841I)",32
"Beta-adrenergic receptor kinase 1 (GRK2, Homo sapiens, UniProt P25098)",100

# Set 6
# Organism: Sarcocystis neurona
# Read-out: parasite growth
# Tested at: 10 µM
# Notes: secondary screen
Compound,inhibition [%]
OCc1cc(C(O)CNCCCCCCOCCCCc2ccccc2)ccc1O (stereo not shown),25.2
O=C1CN2Cc3c(ccc(Cl)c3Cl)N=C2N1,-21.4
CN(C/C=C/C#CC(C)(C)C)Cc1cccc2ccccc12,-56.7
O=C1Nc2ccc(Cl)cc2[C@@](C#CC2CC2)(C(F)(F)F)O1,18.2
CCCCCCNC(=O)n1cc(F)c(=O)[nH]c1=O,64.7
CS(=O)(=O)c1ccc(-c2cc(Br)sc2-c2ccc(F)cc2)cc1,4
C[C@H]1O[C@H](O[C@H]2[C@H](O)[C@@H](O)[C@@H](O[C@H]3[C@H](O)[C@@H](O)C(O)O[C@@H]3CO)O[C@@H]2CO)[C@H](O)[C@@H](O)[C@@H]1N[C@H]1C=C(CO)[C@@H](O)[C@H](O)[C@H]1O (stereo partly shown),-24.4
CC(C)(C(=O)O)c1ccc(C(O)CCCN2CCC(C(O)(c3ccccc3)c3ccccc3)CC2)cc1 (stereo not shown),-34
O=c1[nH]c(=O)n(C2CCCO2)cc1F (stereo not shown),-5.5

# A few entries again (set 3):
SMILES,remaining activity [%]
COc1ccc2c(c1)c(CC(=O)O)c(C)n2Cc1ccc(Cl)cc1,66.6
CC(C)(C)c1ccc(S(=O)(=O)c2cnc(SCC(=O)Nc3ccc4c(c3)OCCO4)[nH]c2=O)cc1,70.6
N#Cc1c(O)c2c(-c3ccc(-c4ccccc4O)cc3)csc2[nH]c1=O,49.5
CC1=Nc2cc(C(=O)NCCc3ccc(Cl)cc3)ccc2Sc2ccc(C)cc21,63.7
CCCCCCCCCCCCc1ccc(S(=O)(=O)Nc2nncs2)cc1,97.6
